Published values from different studies.
Compare with care: the assays were run in different laboratories. ± marks the error that the study gave.
CRBN/Zinc finger protein Aiolos: CRBN/Zinc finger protein Aiolos (Homo sapiens, UniProt Q96SW2+Q9UKT9)
MAPK9: Mitogen-activated protein kinase 9 (MAPK9, Homo sapiens, UniProt P45984)
Sequence of UniProt P45984 (whole entry, looked up): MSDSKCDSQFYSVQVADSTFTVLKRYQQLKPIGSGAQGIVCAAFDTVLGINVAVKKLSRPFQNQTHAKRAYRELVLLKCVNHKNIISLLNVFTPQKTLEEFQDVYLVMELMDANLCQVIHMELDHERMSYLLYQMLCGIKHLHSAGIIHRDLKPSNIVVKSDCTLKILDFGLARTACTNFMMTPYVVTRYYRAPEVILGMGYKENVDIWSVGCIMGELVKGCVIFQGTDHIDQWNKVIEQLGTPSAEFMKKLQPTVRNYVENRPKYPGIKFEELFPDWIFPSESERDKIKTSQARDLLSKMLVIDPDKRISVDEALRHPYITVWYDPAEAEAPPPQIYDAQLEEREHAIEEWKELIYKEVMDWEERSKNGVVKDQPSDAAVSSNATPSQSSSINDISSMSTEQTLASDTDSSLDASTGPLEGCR
IL1RL2: Interleukin-1 receptor-like 2 (IL1RL2, Homo sapiens, UniProt Q9HB29)
Sequence of UniProt Q9HB29 (whole entry, looked up): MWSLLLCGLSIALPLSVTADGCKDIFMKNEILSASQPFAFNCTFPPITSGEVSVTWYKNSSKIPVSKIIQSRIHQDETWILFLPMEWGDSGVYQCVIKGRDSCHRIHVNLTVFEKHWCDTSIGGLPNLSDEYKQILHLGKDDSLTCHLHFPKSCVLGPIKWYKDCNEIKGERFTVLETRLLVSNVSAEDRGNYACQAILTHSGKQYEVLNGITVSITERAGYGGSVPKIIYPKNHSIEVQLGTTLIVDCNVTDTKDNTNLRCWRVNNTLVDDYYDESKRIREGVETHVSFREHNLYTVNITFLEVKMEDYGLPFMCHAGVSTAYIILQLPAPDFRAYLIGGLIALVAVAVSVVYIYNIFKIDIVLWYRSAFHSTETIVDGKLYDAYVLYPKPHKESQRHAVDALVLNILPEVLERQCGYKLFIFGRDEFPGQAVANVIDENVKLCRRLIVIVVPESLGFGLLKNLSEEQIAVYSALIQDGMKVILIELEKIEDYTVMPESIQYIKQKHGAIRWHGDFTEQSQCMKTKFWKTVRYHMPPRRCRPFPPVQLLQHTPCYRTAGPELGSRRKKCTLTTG
PNLIP: Pancreatic triacylglycerol lipase (PNLIP, Homo sapiens, UniProt P16233)
Sequence of UniProt P16233 (whole entry, looked up): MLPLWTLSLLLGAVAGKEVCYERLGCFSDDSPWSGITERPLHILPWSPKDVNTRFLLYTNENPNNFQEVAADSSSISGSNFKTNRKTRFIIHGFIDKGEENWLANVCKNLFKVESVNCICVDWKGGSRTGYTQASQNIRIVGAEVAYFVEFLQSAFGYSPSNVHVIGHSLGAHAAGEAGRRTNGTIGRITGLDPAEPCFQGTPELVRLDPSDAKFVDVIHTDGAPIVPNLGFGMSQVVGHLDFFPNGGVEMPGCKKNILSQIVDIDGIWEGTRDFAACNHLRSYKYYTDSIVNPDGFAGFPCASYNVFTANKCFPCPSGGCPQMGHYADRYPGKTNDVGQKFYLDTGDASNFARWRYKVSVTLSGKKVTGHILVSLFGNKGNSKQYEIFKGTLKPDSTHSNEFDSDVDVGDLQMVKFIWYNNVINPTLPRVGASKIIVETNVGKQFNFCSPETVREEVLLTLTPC
Sequence of UniProt O75417 (whole entry, looked up): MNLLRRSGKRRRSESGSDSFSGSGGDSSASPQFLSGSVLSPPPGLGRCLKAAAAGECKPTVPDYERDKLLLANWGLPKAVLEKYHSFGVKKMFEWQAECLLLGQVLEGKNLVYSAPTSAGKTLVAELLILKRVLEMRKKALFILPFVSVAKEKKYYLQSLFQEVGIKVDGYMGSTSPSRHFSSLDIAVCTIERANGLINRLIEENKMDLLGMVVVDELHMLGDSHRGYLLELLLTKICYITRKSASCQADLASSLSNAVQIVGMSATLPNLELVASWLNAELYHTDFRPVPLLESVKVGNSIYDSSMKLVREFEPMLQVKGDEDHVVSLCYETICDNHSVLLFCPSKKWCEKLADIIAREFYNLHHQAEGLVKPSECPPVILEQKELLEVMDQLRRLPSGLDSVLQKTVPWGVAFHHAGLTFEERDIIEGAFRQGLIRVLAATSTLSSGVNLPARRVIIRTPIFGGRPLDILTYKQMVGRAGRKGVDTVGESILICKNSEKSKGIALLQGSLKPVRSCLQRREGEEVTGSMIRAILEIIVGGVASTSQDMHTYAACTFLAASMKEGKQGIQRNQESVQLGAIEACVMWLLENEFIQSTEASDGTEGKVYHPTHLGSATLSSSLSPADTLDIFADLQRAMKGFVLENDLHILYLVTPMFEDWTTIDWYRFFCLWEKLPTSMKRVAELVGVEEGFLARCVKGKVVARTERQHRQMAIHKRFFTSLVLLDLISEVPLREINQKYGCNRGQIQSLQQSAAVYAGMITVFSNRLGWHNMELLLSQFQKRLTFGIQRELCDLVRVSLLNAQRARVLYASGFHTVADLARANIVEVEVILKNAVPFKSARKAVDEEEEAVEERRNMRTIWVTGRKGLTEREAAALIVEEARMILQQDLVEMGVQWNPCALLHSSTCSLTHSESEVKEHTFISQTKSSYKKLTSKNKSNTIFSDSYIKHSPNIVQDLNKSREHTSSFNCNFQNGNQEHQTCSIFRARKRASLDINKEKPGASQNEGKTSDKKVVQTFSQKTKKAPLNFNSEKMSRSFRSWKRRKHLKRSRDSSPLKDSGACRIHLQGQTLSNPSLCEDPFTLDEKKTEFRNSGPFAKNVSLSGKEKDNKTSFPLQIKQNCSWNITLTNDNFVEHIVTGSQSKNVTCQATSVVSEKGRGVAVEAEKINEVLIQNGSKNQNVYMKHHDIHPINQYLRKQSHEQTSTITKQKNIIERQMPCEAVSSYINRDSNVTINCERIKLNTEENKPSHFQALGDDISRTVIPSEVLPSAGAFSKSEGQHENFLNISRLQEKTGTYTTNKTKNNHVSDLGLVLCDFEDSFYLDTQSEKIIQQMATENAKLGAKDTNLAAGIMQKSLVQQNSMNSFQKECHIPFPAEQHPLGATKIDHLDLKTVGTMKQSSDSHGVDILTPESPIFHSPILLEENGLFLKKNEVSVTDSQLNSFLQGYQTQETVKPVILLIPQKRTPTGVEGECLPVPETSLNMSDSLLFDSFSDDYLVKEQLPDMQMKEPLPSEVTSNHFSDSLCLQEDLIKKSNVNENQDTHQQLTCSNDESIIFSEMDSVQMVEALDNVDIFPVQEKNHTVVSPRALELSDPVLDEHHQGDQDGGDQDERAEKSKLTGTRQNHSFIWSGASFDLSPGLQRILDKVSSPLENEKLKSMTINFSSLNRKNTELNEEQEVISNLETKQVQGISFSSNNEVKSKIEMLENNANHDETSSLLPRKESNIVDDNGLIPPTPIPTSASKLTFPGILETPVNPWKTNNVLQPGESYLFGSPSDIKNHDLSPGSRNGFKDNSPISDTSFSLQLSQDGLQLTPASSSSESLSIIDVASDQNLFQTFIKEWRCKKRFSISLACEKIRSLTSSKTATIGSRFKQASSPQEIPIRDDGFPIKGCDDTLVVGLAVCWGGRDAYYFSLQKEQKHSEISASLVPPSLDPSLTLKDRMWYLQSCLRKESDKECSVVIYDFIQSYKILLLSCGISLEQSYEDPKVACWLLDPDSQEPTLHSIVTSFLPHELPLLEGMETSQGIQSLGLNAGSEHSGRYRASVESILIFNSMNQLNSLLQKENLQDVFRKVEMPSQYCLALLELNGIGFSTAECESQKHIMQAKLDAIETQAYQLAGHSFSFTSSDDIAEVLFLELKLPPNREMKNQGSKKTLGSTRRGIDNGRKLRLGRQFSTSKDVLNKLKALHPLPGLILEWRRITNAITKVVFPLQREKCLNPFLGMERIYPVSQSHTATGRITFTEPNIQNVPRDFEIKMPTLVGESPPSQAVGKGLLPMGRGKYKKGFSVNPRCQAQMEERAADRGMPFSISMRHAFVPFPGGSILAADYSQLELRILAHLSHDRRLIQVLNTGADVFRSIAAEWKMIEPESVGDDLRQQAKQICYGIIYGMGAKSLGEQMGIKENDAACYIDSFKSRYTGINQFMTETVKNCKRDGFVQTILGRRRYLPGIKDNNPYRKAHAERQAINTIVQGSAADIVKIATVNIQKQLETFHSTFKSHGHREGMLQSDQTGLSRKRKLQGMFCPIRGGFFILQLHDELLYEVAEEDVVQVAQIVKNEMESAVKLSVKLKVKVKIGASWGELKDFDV
Sequence of UniProt O60566 (whole entry, looked up): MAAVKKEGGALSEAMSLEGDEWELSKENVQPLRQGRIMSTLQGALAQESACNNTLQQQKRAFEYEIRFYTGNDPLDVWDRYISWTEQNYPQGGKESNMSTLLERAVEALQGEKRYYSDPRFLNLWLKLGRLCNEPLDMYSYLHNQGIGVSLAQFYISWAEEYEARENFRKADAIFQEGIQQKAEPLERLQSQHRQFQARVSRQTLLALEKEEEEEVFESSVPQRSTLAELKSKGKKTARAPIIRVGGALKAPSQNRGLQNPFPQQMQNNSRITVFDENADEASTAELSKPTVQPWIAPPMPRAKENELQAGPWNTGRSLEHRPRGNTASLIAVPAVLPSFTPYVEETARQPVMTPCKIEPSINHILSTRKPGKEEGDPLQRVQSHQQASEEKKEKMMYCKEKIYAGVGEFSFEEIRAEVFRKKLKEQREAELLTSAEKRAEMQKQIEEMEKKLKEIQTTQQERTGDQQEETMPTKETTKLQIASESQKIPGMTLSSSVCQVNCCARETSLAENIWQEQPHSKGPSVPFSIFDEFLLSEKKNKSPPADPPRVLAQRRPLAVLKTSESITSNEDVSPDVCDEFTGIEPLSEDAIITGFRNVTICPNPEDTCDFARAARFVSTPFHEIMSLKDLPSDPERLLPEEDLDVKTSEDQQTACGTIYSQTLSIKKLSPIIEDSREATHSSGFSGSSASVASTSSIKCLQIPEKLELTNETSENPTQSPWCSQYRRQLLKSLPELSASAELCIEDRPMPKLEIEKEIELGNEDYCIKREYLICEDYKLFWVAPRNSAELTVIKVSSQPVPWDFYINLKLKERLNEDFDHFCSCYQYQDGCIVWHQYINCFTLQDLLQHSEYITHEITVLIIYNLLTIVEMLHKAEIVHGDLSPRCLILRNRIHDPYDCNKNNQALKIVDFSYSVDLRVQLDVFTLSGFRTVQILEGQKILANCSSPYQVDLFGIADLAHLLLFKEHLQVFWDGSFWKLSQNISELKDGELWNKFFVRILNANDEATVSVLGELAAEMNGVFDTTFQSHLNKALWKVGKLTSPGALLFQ

The remaining activity of `O=C1CCC(N2C(=O)c3cccc4c(Cc5cnn(C6CCN(C(=O)C7(O)CC7)CC6)c5)ccc2c34)C(=O)N1` (stereo not drawn) is reported as 7.19% (CRBN/Zinc finger protein Aiolos; protein level, degrader, western blot; NCI-H929; 10 nM, 4 h).
With `Cc1cc(NC(=O)c2cccc(N)c2)ccc1Nc1nccc(-c2cccnc2)n1` the remaining activity was 0.183 (MAPK9; enzyme activity, inhibitor; 14.81 µM, unit not given; relative to: vehicle).
`O=C1CCC(N2C(=O)c3cccc4c(Cc5ccc(CN6CCNCC6)nc5)ccc2c34)C(=O)N1` (stereo not drawn) gave a remaining activity of 106% (CRBN/Zinc finger protein Aiolos; protein level, degrader, western blot; NCI-H929; 1 nM, 4 h).
`Cc1cc(C(=O)Nc2nc3cccc(C)c3n2[C@H]2CCCCN(C(=O)/C=C/CN(C)C)C2)ccn1` gave a remaining activity of 22.8% (CDC2-like kinase 1 (Trypanosoma brucei brucei, UniProt Q382U0); kinase activity, ADP-Glo; 0.3125 µM).
For `CC(C)[C@@H]1NC(=O)[C@H](Cc2ccccc2)NC(=O)CSC[C@@H](C(N)=O)NC(=O)[C@H](CCC(=O)O)NC(=O)[C@H](CO)NC(=O)[C@H](Cc2c[nH]c3cccc(Cl)c23)NC(=O)[C@H](C2CCCCC2)NC(=O)[C@H](C(C)C)NC(=O)[C@H](Cc2ccc(O)cc2)NC(=O)[C@H](CC(=O)O)NC(=O)[C@H](Cc2c[nH]c3ccccc23)NC(=O)[C@H](Cc2ccc(N)nc2)NC(=O)[C@H](Cc2c[nH]c3ccc(Cl)cc23)NC(=O)[C@H](CCC(=O)O)NC1=O`, the remaining activity was 18.9% (IL1RL2; reporter gene (SEAP), inhibitor, HEK-Blue IL-36R reporter; HEK-Blue IL-36R cells; 100 µM, 6 h, with: IL-36β 3 ng/mL).
The remaining activity of `O=C1CCC(N2C(=O)c3cccc4c(Cc5cnn(C6CCN(C(=O)CS)CC6)c5)ccc2c34)C(=O)N1` (stereo not drawn) is reported as 101% (CRBN/Zinc finger protein Aiolos; protein level, degrader, western blot; NCI-H929; 100 pM, 4 h).
`C[n+]1cc(/C=N/NC(=O)c2cccc(C(=O)N/N=C/c3cc4ccccc4[n+](C)c3)c2)cc2ccccc21` gave a ΔTm of 0.7 ± 0.1 °C (hp2 hairpin duplex DNA; FRET melting; 1 µM, with: ds26 10 µM).
The remaining activity of `C#CCOC(=O)[C@@]1(C)C=C(C(=O)Nc2cccc(C(=O)Nc3ccc(C)c(Nc4nccc(-c5cccnc5)n4)c3)c2)C(=O)CC1` is reported as 0.761 (MAPK9; enzyme activity, inhibitor; 0.06097 µM, unit not given; relative to: vehicle).
`COc1cc(Nc2nc(C)cc(-c3cnn4nc(OC)ccc34)n2)cc(C(F)(F)F)c1` has a remaining activity of 100% (PIK3CA (Homo sapiens, UniProt P42336, M1043I); inhibitor; 1 µM; relative to: control).
With `Nc1ccc(O)c2c1C(=O)c1c(O)ccc(N)c1C2=O` the remaining activity was 7.9% (PNLIP; enzyme activity, inhibitor, fluorescence; 50 µM).
The remaining activity of `CC(C)(C)OC(=O)NC(Cc1cccc(Cl)c1)C(=O)NCC=CS(=O)(=O)c1ccccc1` (stereo not drawn) is reported as less than 1% (Cathepsin S (CTSS, Homo sapiens, UniProt P25774); inhibitor; 5 µM, 60 min, with: Z-Phe-Arg-AMC; relative to: uninhibited control).
`COC(=O)[C@@]1(C(C)C)C=C(C(=O)Nc2cccc(C(=O)Nc3ccc(Nc4nccc(-c5cccnc5)n4)c(C)c3)c2)C(=O)CC1` gave a remaining activity of 0.764 (MAPK8 (Homo sapiens, UniProt P45983); kinase activity, inhibitor; 0.1829 µM, unit not given, with: 10 mM glutathione; relative to: no inhibitor).
`N#Cc1cnc2sc(C(=O)O)cc2c1N1CCc2[nH]nc(C(=O)N[C@@H](CC(=O)NCCOCCN3CCOCC3)c3cccc(Br)c3)c2C1` has a remaining activity of 84.5% (IL1RL2; SEAP reporter gene, antagonist; HEK-Blue IL-36R cells; 0.005 µM, 6 h, with: IL-36 0.01 ng/mL; relative to: untreated).
`C[C@](C(=O)NC1CCOCC1)(c1cncnc1)N(C(=O)[C@H](F)Cl)c1ccc(OC(F)(F)Cl)cc1` gave a remaining activity of 104% (Kallikrein-14 (Homo sapiens, UniProt Q9P0G3); enzyme activity, inhibitor; 10 µM).
With `O=C1CCC(N2C(=O)c3cccc4c(Cn5cc(C6CCNCC6)nn5)ccc2c34)C(=O)N1` (stereo not drawn) the remaining activity was 86.3% (CRBN/Zinc finger protein Aiolos; protein level, degrader, western blot; NCI-H929; 1 nM, 4 h).
`O=C1c2cccc(O)c2C(=O)c2c(O)cc(CO)cc21` has a remaining activity of 8.1% (PNLIP; enzyme activity, inhibitor, fluorescence; 50 µM).
For `CC(C)(O)C(=O)N1CCC(n2cc(Cc3ccc4c5c(cccc35)C(=O)N4C3CCC(=O)NC3=O)cn2)CC1` (stereo not drawn), the remaining activity was 35.3% (CRBN/Zinc finger protein Aiolos; protein level, degrader, western blot; NCI-H929; 1 nM, 4 h).
The remaining activity of `Cc1ccc2[c](c1)[Au-]([Cl])([Cl])[n+]1ccccc1-2` is reported as 18.7% (GPX4 (Homo sapiens, UniProt P36969); inhibitor, GR-coupled NADPH; up to 36.3 µM, pre-incubation, with: enzyme 100 nM).
For `O=C1CCC(N2C(=O)c3cccc4c(Cc5ccc(CN6CCNCC6)cc5)ccc2c34)C(=O)N1` (stereo not drawn), the remaining activity was 28.2% (CRBN/Zinc finger protein Aiolos; protein level, degrader, western blot; NCI-H929; 10 nM, 4 h).
`O=C1C=CC(=O)c2cc3ccccc3cc21` has a remaining activity of 6.17% (PNLIP; enzyme activity, inhibitor, fluorescence; 50 µM).
`CN1C[C@@H](c2c[nH]c3cc(Br)ccc23)NC[C@@H]1c1c[nH]c2cc(Br)ccc12` gave a remaining activity of 97% (BUB1B (Homo sapiens, UniProt O60566); enzyme activity, inhibitor; 10 µM).
With `O=C1CCC(N2C(=O)c3cccc4c(Cc5cnn(C6CCNCC6)c5)ccc2c34)C(=O)N1` (stereo not drawn) the remaining activity was 75.6% (CRBN/Zinc finger protein Aiolos; protein level, degrader, western blot; NCI-H929; 1 nM, 4 h).
For `O=C(N/N=C/c1ccc(C[n+]2ccccc2)cc1)C(=O)N/N=C/c1ccc(C[n+]2ccccc2)cc1`, the ΔTm was 0.4 ± 0.1 °C (hp2 hairpin duplex DNA; FRET melting; 1 µM).
The remaining activity of `COc1ccccc1-c1ccncc1C(=O)Nc1nnc(OCc2ccc(Cl)cc2)s1` is reported as 81% (DNA polymerase theta, helicase domain (POLQ, Homo sapiens, UniProt O75417); ATPase activity, ADP-Glo; 0.008 µM, with: ATP 400 µM).
`O=C1c2ccc(O)cc2C(=O)c2ccc(O)cc21` gave a remaining activity of 8.34% (PNLIP; enzyme activity, inhibitor, fluorescence; 50 µM).
`COC(=O)[C@@]1(C)C=C(C(=O)Nc2cccc(C(=O)Nc3ccc(Nc4nccc(-c5cccnc5)n4)c(C)c3)c2)C(=O)CC1` gave a remaining activity of 0.994 (MAPK9; enzyme activity, inhibitor; 2.788e-05 µM, unit not given; relative to: vehicle).
With `CO[C@@H]1[C@@H](OC(=O)c2ccc(C)[nH]2)[C@@H](O)[C@H](Oc2ccc3c(O)c(NC(=O)c4c[nH]c(C(=O)Nc5c(O)c6ccc(O[C@@H]7OC(C)(C)[C@H](OC)[C@@H](OC(=O)c8ccc(C)[nH]8)[C@H]7O)c(C)c6oc5=O)c4C)c(=O)oc3c2C)OC1(C)C` the remaining activity was 0% (Large T antigen (Simian virus 40, UniProt P03070); fork unwinding; 500 µM).

A few entries again:
`COc1cc(Nc2nc(C)cc(-c3cnn4nc(OC)ccc34)n2)cc(C(F)(F)F)c1` has a remaining activity of 100% (PIK3CA (Homo sapiens, UniProt P42336, M1043I); inhibitor; 1 µM; relative to: control).
With `Nc1ccc(O)c2c1C(=O)c1c(O)ccc(N)c1C2=O` the remaining activity was 7.9% (PNLIP; enzyme activity, inhibitor, fluorescence; 50 µM).
The remaining activity of `CC(C)(C)OC(=O)NC(Cc1cccc(Cl)c1)C(=O)NCC=CS(=O)(=O)c1ccccc1` (stereo not drawn) is reported as less than 1% (Cathepsin S (CTSS, Homo sapiens, UniProt P25774); inhibitor; 5 µM, 60 min, with: Z-Phe-Arg-AMC; relative to: uninhibited control).
`COC(=O)[C@@]1(C(C)C)C=C(C(=O)Nc2cccc(C(=O)Nc3ccc(Nc4nccc(-c5cccnc5)n4)c(C)c3)c2)C(=O)CC1` gave a remaining activity of 0.764 (MAPK8 (Homo sapiens, UniProt P45983); kinase activity, inhibitor; 0.1829 µM, unit not given, with: 10 mM glutathione; relative to: no inhibitor).
